Measured values gathered from unrelated publications.
Every numbered part comes from another study and shows a few of its results, in no order. Positions count from the first letter of the parent shown.

Sample 1 — technique: Spec-seq; form: double-stranded DNA, one strand shown; medium: in vitro; concentration: not given; setting: whole probe, mean of replicates; relative to: not given; direction: lower = stronger binding; constant ends, left off below: GAGTCGTCTCGTCAGCAC … CCGTAGAGCACTCAGGTC
Target: POU, POU domain (Salpingoeca helianthica)
Target sequence (chain): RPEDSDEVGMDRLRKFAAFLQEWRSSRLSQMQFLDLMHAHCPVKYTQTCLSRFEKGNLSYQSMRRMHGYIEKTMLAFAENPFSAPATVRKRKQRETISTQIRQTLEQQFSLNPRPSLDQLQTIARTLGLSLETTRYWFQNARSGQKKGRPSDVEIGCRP
Oligonucleotide | relative binding energy
ATGCCCGA | 1.23 ln ratio
ATGCTCCT | 1.26 ln ratio
ATCTGGAT | 1.44 ln ratio
ATGCAACT | 1.06 ln ratio
GTCCTAAT | 0.833 ln ratio
ATCTACAT | 1.03 ln ratio
ATCGACAT | 1.21 ln ratio
AGGATAAT | 0.601 ln ratio

Sample 2 — target: CCND3, cyclin fold, Cln2 fusion (human); technique: yeast growth competition, sequencing; medium: yeast; setting: weak parent motif; relative to: not given; direction: higher = stronger binding
Starting sequence: viral docking peptide; PTARRRLLHDLDT; partner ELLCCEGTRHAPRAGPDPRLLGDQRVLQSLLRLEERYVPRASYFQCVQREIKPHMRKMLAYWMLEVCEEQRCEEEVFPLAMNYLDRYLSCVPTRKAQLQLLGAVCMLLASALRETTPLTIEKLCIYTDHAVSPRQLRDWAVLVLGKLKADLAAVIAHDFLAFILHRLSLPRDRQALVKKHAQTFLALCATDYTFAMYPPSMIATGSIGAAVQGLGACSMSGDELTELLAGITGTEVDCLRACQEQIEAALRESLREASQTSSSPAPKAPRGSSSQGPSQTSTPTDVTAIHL
Substitution | normalised enrichment score
L11A | 0.0979
R6A | 0.167
T2A | 0.081
H9F | 0.51
T13A | 0.12
D10A | 0.0806
L8F | 0.423
R5A | 0.119

Further values, each from its own experiment
OGT: UDP-N-acetylglucosamine--peptide N-acetylglucosaminyltransferase 110 kDa subunit (OGT, Homo sapiens, UniProt O15294)
Chain of UniProt O15294 (whole entry, looked up): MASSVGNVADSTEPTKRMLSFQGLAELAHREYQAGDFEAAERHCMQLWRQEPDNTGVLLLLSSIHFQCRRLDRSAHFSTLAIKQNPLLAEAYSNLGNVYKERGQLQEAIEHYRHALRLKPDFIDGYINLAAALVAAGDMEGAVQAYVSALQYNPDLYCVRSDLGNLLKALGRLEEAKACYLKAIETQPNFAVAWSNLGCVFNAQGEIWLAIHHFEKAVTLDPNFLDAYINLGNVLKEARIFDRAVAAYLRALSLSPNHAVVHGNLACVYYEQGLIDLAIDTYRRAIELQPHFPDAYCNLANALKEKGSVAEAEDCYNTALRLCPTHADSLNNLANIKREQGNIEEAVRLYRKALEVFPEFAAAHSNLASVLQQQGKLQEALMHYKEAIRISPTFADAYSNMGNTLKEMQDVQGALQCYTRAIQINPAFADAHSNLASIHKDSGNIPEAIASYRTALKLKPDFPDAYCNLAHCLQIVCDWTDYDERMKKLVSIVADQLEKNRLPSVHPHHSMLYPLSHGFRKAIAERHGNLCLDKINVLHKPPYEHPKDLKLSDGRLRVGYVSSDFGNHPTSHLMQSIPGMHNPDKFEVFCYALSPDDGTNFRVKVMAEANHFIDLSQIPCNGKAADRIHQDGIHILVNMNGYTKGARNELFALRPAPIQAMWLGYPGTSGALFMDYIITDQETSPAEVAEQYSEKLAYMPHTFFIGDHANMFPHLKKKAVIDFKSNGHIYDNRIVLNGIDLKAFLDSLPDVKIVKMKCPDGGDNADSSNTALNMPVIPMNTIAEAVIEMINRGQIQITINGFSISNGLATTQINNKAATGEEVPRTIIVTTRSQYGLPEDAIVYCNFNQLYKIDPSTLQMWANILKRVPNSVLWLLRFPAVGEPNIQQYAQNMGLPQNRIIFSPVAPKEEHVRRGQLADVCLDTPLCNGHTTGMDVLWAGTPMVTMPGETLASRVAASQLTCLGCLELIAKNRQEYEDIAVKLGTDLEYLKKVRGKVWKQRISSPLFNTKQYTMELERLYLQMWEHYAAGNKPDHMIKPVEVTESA
P1: PafA, mature enzyme, eGFP fusion (Elizabethkingia meningoseptica, UniProt Q9KJX5); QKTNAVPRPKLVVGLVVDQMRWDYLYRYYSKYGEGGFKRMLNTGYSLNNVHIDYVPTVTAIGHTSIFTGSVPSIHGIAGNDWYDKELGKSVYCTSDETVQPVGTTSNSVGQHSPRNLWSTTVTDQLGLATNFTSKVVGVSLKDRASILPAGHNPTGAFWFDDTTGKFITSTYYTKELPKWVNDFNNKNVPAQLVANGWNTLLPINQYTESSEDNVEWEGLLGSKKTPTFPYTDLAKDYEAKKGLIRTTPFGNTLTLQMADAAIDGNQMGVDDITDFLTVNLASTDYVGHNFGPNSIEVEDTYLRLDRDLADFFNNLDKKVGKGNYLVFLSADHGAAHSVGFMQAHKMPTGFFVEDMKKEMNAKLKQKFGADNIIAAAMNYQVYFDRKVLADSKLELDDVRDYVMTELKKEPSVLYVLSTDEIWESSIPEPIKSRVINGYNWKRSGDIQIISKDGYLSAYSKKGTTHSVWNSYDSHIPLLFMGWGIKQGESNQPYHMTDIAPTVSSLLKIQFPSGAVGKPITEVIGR
Substance | target | assay | system | setting | scale | quantity | result
HTQPMEHNFHHYHF | OGT | binding, phage display NGS | peptide | panning round 2 | relative to: input library | minimum log2 enrichment ratio | 2.46
P1 M404V | tungstate, free oxyanion | microfluidic competitive inhibition | in vitro, cell-free expressed | not given, derived from inhibition constants, unchanged parent 2230 nM | lower = stronger binding | oxyanion analog dissociation constant | 2.32 µM
VKTYEPFYLIDMNRQ | OGT | binding, phage display NGS | peptide | panning round 2 | relative to: input library | minimum log2 enrichment ratio | 1.88
